Published values pooled from the literature.
A part holds a random share of what one study measured. Substitutions count along the parent as printed.

Sample 1
Target: Ras GTPase-activating protein-binding protein 1, C-terminal RGG region (G3BP1, Homo sapiens, UniProt Q13283)
Sequence of UniProt Q13283 (whole entry, looked up): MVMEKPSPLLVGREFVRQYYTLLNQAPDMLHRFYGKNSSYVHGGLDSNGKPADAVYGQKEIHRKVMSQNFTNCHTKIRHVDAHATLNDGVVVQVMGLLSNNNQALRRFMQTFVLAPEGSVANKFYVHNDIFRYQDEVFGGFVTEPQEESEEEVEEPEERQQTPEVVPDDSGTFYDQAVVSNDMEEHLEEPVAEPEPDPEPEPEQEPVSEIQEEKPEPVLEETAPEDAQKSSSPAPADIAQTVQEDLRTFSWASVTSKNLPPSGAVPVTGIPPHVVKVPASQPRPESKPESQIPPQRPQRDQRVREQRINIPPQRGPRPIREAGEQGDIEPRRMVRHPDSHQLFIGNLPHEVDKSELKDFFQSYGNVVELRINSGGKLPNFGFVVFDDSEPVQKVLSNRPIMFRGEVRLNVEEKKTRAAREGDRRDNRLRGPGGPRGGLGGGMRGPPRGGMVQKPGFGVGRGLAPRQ
Technique: RNA Bind-n-Seq
Form: RNA
Medium: in vitro
Tested at: 1 µM
Notes: whole 134-nt RNA, ends assumed
With: 150 mM KCl
Relative to: input library
Reading: higher = stronger binding
Oligonucleotide | log2 enrichment
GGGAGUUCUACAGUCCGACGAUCUGGCCCUGGUGGCAUGCGGGGAGGAAGAGGUGGCCUCAUGGAUCGUGGUGGUCCCGGUGGAAUGUUCAGACGUGGCCGUGGUGGAGACAGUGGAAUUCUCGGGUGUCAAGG | 3.15
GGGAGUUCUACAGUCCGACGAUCAGUCCUGUGCUACACAUCGUAUGUACCGAAUCGGAAAAGGGGAAAAGGGGAAAAGGGAAAGUAUUAUGUUACGCCGUUCGGAUCUGCACUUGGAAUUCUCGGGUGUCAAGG | -0.432
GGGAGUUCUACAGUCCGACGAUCCUCAAGUCCUGUGCUACACAUCGUAUGUACCGAAUCGGGCCGGCCGGGGCCGGGAAAGUAUUAUGUUACGCCGUUCGGAUCUGCACUUCCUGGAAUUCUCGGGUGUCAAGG | -1.2
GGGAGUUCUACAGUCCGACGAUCAGUCCUGUGCUACACAUCGUAUGUACCGAAUCGGGUUUGGGAAAAAAAGGGUUUGGGAAAGUAUUAUGUUACGCCGUUCGGAUCUGCACUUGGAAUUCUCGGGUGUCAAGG | 0.898
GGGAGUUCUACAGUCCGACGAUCUGGCGCUGUCCUGGACUUGAUGGGGGAUGAAGCCCAGAACCUGACGAGGGGCCGGCAGCAGCUCAAGUGGUGAGUGAUCGAGUGAGCCGCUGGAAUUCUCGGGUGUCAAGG | -0.981
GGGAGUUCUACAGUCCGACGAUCUUGUGAGCUGCAAGCUAGGCUGCAGGCCCAGGAAGAACAGCAUCAGGAAGUCCAGAAGGCAAAAGAAGCAGACAUAGAGAAGCUGAACCAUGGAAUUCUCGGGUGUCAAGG | -1.94
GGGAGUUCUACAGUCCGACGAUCUAAAUUUAGAGGAGGAUCUGAUGGAUAUGGCAGUGGACGUGGAUUUGGGGAUGGCUAUAAUGGGUAUGGAGGAGGACCUGGAGGUGGCAAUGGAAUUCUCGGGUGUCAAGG | -0.483
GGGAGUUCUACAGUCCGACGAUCUAACUUUAGAGGAGGAUCUGAUGGAUAUGGCAGUGGACGUGGAUUUGGGGGUGGCUAUAAUGGGUAUGGAGGAGGACCUGGAGGUGGCAAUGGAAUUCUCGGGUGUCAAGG | 0.0531
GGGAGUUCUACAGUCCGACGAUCAAGUCCUGUGCUACACAUCGUAUGUACCGAAUCGGGUUUUGGUUUUGGUUUUGGGGAAAGUAUUAUGUUACGCCGUUCGGAUCUGCACUUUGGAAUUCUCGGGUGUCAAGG | -1.5

Sample 2
Target: Prothrombin, mature alpha-thrombin (F2, Homo sapiens, UniProt P00734)
Technique: aptamer microarray, sandwich
Form: DNA with 2'F-ANA
Medium: in vitro
Tested at: 200 nM
Notes: whole 15-mer aptamer, many near background
With: Cy3 exosite-II aptamer, 400 nM
Reading: higher = stronger binding
Oligonucleotide: GGTTGGTGTGGTTGG
Modification | mean fluorescence intensity [a.u.]
2'F-ANA at 4 5 7 8 11 13 15 | 92.4
2'F-ANA at 2 3 4 7 8 10 14 15 | 174
2'F-ANA at 1 2 3 5 10 13 14 15 | 50.2
2'F-ANA at 1 3 6 8 9 14 | 86.4
2'F-ANA at 4 5 7 9 12 13 14 15 | 53.8
2'F-ANA at 2 3 5 8 11 14 | 53.7
2'F-ANA at 1 2 4 6 11 12 13 14 15 | 66.6
2'F-ANA at 3 4 5 6 8 9 11 12 13 | 107
2'F-ANA at 1 4 5 7 8 9 10 12 | 51.7
2'F-ANA at 1 3 4 5 6 7 8 9 11 13 15 | 49.5
2'F-ANA at 3 4 5 7 11 12 | 170
2'F-ANA at 1 2 3 6 11 13 15 | 133
2'F-ANA at 2 7 9 12 13 14 15 | 173
2'F-ANA at 1 3 4 6 7 12 13 15 | 228
2'F-ANA at 1 2 3 8 10 11 12 | 82.2
2'F-ANA at 1 2 4 6 7 8 10 11 12 14 | 46.7
2'F-ANA at 3 7 10 12 13 14 | 481
2'F-ANA at 1 3 4 6 13 14 | 61.6
2'F-ANA at 2 5 8 10 12 14 15 | 47.3
2'F-ANA at 1 8 11 14 | 53.1
2'F-ANA at 2 4 5 6 14 | 54.4

Sample 3
Target: Protein C-ets-1 (ETS1, Homo sapiens, UniProt P14921, residues 1-441, K379A, full length assumed)
Technique: protein-binding microarray
Form: double-stranded DNA, one strand shown
Medium: in vitro
Tested at: not given
Notes: k-mer, scored over probes, only values ≥0.25
Reading: higher = stronger binding
Target sequence (chain): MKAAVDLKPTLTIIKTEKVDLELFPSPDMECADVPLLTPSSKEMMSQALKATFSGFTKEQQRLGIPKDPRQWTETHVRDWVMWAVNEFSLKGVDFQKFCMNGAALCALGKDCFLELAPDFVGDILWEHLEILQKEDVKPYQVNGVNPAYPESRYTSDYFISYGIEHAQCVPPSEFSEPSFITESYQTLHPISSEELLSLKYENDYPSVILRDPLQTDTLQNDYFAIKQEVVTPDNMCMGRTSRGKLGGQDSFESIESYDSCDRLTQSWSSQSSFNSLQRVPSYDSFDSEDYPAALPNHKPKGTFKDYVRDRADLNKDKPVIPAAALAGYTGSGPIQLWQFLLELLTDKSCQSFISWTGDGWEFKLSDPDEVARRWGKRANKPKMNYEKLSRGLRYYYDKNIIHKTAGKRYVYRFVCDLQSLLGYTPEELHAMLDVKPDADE
Oligonucleotide | E-score
GTCGTTTA | 0.277
CACAGGTA | 0.256
CCCGTCGG | 0.286
ATTCAAAT | 0.254
GTCCGGTA | 0.368
GGGTGGGA | 0.326
ATCGTGTC | 0.285
TGGGCCCA | 0.297
CCATCCGG | 0.291
CCCGCACC | 0.301
CCGGGACG | 0.363
CAGGTAGA | 0.263
CGGTTGTC | 0.267
CAATACAC | 0.271

Sample 4
Target: Histone acetyltransferase KAT6A, winged helix 2, GST fusion (KAT6A, Homo sapiens, UniProt Q92794, residues 85-181)
Technique: protein binding microarray
Form: double-stranded DNA, one strand shown
Medium: in vitro
Tested at: not given
Notes: 8-mer, flanks averaged, mean of 2 arrays, mostly near background
Relative to: not given
Reading: higher = stronger binding
Target sequence (chain): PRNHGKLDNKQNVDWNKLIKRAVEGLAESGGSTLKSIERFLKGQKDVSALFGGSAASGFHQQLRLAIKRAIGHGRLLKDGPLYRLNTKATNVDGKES
Oligonucleotide | E-score
AGATCATG | -0.0285
GCATGAAC | 0.0834
AATTCCCG | 0.14
ATATCTAG | 0.0277
CGGACCTA | 0.0626
ATAATTTG | 0.00814
GAGTTCAC | 0.04
CAGCTGCA | -0.118
CTCCTTAC | -0.195
CGGACTAC | -0.163
ATTGCGCG | 0.124
TATTGAAA | 0.133
GGGCAACA | 0.1
ATTTGGTA | 0.0305
GCAAGGTA | -0.0774

Sample 5
Target: Sal-like protein 4, full length isoform B (SALL4, Homo sapiens, UniProt Q9UJQ4-2, residues 1-616)
Technique: universal PBM
Form: double-stranded DNA, one strand shown
Medium: in vitro
Tested at: not given
Notes: 8-mer, flanks averaged, mean of replicates
Reading: higher = stronger binding
Oligonucleotide | E-score
AAACCACT | 0.0748
CCATGATC | 0.00555
AGGGAGAC | -0.189
CGACGGGA | -0.175
AAACAAGA | 0.0945
ATTCCCAA | 0.293
ATGCATAG | 0.167
ACGTGCCA | -0.135
GAACGCAC | -0.127
CCTGACTA | 0.0794
CCAGGCCG | -0.307
GACGAAAC | -0.144
GTGCCAAA | -0.057

Sample 6
Target: CCNE1, cyclin fold, Cln2 fusion (human)
Technique: yeast growth competition, sequencing
Medium: yeast
Notes: weak parent motif
Relative to: not given
Reading: higher = stronger binding
Starting sequence: SAMHD1 docking peptide (human); ASKSRVQLFKDDP
Variant | normalised enrichment score
K10C | 0.257
V6S | -0.352
S2C | 0.103
K3F | 0.379
D12P | 0.148
K3L | 0.0752
D11M | 0.446
F9P | -0.0461
V6H | -0.341
S4G | 0.149
F9S | 0.0585
F9M | 0.0222
V6T | 0.0222
D11N | 0.257
L8K | -0.124
S4M | 0.143
L8N | -0.0628
D11C | 0.106

Some of these lines once more (sample 5):
Oligonucleotide | E-score
CCATGATC | 0.00555
AGGGAGAC | -0.189
CGACGGGA | -0.175
AAACAAGA | 0.0945
ATTCCCAA | 0.293
ATGCATAG | 0.167
ACGTGCCA | -0.135
GAACGCAC | -0.127
CCTGACTA | 0.0794
CCAGGCCG | -0.307
GACGAAAC | -0.144
GTGCCAAA | -0.057
